Measurements of several laboratories.
Every numbered part comes from another study and shows a few of its results, in no order. Substitutions count along the parent as printed.

Set 1
Target: Centromere-binding protein 1, full length, N-terminal tag (CBF1, Saccharomyces cerevisiae, UniProt P17106, residues 1-351)
Chain of UniProt P17106 (whole entry, looked up): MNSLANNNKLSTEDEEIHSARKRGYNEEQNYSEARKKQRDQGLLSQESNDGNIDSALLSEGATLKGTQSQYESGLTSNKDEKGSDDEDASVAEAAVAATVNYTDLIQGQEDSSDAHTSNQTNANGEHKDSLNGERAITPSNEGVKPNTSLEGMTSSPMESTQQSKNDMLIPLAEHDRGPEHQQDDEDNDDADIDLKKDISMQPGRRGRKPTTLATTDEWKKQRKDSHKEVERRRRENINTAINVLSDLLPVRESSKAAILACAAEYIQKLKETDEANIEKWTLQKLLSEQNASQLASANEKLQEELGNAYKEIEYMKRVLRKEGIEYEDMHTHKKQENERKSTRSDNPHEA
Technique: protein-binding microarray
Form: double-stranded DNA, one strand shown
Sample: in vitro
Concentration: 0.8 µM
Notes: whole 60-bp probe, no competitor
Direction: higher = stronger binding
Measurement: fluorescence intensity
GAATATAAAAGTAGCCACATGGTTCATAACATCTAGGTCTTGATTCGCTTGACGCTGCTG: 620 a.u.
GAAAGACGTGTCCGCCGGGTGATGAAGCTGTGATAGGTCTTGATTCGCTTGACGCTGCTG: 517 a.u.
CTATTTCTAATGCATCAGCTGTTATGCGCACTATTCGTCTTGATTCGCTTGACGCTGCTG: 631 a.u.
GAATTGCATACACGTGACGGATCACAACAACCCTAGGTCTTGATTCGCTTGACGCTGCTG: 16200 a.u.
CTATTGGACTTACTATACCTGACGGTCCACGGGTTCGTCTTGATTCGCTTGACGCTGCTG: 589 a.u.
GAATACTCAAGTGTATACGTGCATGCTTTTTTTTAGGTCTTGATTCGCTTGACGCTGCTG: 616 a.u.
CCTAACTACTATAGTGGCGTGATATAGCTTCGTACAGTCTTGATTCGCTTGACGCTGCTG: 943 a.u.
GAAGGATGTGCATATCACGTTCGGATCTATGTATAGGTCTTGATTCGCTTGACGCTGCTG: 795 a.u.
GAACTCTAGTCACGTGGTGCCTTTTTTTCCCATTAGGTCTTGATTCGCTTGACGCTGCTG: 25700 a.u.
CTAGCATAAAACAACCATGTGGAGTTTTTACTGTTCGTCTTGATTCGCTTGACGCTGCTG: 589 a.u.
GAACTTCTTTTGGTGCACGTACCTTTTGGACTGTAGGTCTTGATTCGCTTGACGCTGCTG: 563 a.u.

Set 2
Target: CCNF, cyclin fold, Cln2 fusion (human)
Technique: yeast growth competition, sequencing
Sample: yeast
Notes: strong parent motif
Reference: not given
Direction: higher = stronger binding
Measurement: normalised enrichment score
Starting sequence: CDKN1A docking peptide (human); SKACRRLFGPVDS; partner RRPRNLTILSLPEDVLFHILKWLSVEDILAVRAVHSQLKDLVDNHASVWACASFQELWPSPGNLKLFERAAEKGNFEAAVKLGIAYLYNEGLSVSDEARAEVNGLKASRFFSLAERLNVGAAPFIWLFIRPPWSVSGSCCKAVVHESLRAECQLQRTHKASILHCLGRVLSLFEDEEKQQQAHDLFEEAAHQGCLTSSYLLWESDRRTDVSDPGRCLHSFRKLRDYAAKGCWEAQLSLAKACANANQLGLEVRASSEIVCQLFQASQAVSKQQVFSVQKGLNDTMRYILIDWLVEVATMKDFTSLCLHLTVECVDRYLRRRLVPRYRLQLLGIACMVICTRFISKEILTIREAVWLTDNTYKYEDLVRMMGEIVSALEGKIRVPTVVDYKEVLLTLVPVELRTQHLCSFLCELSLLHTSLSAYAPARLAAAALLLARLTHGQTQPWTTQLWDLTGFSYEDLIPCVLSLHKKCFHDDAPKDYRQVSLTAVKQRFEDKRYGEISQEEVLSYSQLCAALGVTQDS
C4Q: 7.17
F8L: 0.517
R6I: 5.16
C4G: 2.84
C4W: 1.14
C4M: 4.49
P10T: 6.94
L7M: 0.674
R6Q: 7.29
R6T: 5.35
D12G: 7.21

Set 3
Target: ABI1, truncated, D143A, DHFR fusion (Arabidopsis thaliana)
Technique: DHFR PCA, deep sequencing
Sample: yeast
Notes: methotrexate growth selection, single substitutions
Added: (+)-ABA 1.4 µM
Reference: wild-type fitted maximum
Direction: higher = stronger binding
Measurement: relative binding score
Starting sequence: PYL1, truncated, DHFR fusion (Arabidopsis thaliana); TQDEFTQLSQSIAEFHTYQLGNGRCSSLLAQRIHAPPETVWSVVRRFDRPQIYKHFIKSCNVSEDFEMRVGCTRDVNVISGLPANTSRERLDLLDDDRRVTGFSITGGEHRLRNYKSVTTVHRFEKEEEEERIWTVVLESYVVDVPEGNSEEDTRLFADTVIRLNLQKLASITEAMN; partner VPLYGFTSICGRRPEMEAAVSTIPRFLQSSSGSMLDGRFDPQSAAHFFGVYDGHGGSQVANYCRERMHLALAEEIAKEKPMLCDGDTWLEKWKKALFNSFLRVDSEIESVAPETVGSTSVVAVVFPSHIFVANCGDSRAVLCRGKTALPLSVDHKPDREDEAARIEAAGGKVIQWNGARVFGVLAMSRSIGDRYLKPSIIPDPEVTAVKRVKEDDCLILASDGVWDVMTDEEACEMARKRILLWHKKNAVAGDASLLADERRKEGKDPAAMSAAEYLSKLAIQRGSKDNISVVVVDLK
H55A: 81.6%
F15K: -4.51%
S87P: 13.5%
V145W: -14.5%
W41E: -16.9%
L29S: 2.27%
F56G: -3.45%
I57A: -5.85%
S9A: 74.3%
P83Q: 10.9%
G21R: 49.2%
K168W: 48.9%

Further values, each from its own experiment
PhoQ, residues 284 288 289 292 302 303 AGCYAI — fold induction (PhoP, residues 12 14 15 18 19 MHTVL (Escherichia coli, UniProt P23836); Sort-seq, refers to: YFP reporter; E. coli; PhoQ-PhoP variant library, added: 10 µM Mg2+; reference: high Mg2+ state, higher = stronger signaling): 12.2

Repeated from above (set 1):
GAATACTCAAGTGTATACGTGCATGCTTTTTTTTAGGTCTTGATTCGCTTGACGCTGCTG: 616 a.u.
CTATTTCTAATGCATCAGCTGTTATGCGCACTATTCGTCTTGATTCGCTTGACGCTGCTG: 631 a.u.
GAATTGCATACACGTGACGGATCACAACAACCCTAGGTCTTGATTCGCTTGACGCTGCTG: 16200 a.u.
